Results of several laboratories.
Every numbered part comes from another study and shows a few of its results, in no order.
Chain of UniProt P57078 (whole entry, looked up): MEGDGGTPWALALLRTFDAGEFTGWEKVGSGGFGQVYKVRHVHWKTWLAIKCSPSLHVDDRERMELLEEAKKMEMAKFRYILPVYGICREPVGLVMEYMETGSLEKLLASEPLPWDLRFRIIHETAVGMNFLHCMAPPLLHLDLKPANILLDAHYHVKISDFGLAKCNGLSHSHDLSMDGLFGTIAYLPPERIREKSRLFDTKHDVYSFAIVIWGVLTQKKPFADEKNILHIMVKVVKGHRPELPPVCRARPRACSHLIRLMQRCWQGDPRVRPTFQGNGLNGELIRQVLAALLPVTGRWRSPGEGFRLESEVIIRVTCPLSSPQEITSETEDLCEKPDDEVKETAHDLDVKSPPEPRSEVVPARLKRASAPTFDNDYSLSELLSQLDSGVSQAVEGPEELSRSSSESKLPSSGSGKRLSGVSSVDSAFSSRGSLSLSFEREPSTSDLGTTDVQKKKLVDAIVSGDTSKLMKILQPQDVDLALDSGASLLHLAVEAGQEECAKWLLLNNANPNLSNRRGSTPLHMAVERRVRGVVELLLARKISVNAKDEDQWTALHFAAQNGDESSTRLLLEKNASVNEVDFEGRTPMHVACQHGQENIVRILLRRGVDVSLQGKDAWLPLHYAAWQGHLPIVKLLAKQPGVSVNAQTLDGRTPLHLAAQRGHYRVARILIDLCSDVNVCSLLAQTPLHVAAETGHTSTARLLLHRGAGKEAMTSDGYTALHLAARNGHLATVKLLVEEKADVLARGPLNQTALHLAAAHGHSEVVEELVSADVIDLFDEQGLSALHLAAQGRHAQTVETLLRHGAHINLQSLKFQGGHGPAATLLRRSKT
Chain of UniProt P78356 (whole entry, looked up): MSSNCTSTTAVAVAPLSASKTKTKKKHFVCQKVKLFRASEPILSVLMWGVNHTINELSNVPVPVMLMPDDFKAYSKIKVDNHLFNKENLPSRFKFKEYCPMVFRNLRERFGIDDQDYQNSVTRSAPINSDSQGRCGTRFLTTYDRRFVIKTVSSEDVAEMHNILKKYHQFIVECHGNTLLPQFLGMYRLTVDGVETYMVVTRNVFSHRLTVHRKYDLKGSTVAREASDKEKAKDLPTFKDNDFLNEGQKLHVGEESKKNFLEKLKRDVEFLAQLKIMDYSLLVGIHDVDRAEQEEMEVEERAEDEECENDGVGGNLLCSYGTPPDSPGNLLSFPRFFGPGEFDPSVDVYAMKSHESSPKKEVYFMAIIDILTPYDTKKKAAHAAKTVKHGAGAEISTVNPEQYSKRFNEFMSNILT
Chain of UniProt P51812 (whole entry, looked up): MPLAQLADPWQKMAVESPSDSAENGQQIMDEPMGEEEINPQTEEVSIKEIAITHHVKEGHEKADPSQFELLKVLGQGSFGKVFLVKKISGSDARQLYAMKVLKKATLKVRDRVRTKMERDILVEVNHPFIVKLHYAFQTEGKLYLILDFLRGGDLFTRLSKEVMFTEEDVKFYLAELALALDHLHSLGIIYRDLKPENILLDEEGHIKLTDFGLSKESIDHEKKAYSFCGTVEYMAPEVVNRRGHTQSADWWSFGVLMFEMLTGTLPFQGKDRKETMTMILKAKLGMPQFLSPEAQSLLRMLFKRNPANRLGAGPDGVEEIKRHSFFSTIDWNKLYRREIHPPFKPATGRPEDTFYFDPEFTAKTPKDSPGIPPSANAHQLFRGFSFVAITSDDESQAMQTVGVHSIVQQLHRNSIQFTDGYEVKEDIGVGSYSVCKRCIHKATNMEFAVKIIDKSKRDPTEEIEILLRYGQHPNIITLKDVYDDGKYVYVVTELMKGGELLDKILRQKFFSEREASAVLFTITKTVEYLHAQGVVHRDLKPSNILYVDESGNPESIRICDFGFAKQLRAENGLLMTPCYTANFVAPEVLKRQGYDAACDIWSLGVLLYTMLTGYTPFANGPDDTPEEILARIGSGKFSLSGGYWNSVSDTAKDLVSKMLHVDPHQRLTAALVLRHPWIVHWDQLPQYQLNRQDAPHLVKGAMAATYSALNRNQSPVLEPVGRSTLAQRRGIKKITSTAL
Chain of UniProt Q15303 (whole entry, looked up): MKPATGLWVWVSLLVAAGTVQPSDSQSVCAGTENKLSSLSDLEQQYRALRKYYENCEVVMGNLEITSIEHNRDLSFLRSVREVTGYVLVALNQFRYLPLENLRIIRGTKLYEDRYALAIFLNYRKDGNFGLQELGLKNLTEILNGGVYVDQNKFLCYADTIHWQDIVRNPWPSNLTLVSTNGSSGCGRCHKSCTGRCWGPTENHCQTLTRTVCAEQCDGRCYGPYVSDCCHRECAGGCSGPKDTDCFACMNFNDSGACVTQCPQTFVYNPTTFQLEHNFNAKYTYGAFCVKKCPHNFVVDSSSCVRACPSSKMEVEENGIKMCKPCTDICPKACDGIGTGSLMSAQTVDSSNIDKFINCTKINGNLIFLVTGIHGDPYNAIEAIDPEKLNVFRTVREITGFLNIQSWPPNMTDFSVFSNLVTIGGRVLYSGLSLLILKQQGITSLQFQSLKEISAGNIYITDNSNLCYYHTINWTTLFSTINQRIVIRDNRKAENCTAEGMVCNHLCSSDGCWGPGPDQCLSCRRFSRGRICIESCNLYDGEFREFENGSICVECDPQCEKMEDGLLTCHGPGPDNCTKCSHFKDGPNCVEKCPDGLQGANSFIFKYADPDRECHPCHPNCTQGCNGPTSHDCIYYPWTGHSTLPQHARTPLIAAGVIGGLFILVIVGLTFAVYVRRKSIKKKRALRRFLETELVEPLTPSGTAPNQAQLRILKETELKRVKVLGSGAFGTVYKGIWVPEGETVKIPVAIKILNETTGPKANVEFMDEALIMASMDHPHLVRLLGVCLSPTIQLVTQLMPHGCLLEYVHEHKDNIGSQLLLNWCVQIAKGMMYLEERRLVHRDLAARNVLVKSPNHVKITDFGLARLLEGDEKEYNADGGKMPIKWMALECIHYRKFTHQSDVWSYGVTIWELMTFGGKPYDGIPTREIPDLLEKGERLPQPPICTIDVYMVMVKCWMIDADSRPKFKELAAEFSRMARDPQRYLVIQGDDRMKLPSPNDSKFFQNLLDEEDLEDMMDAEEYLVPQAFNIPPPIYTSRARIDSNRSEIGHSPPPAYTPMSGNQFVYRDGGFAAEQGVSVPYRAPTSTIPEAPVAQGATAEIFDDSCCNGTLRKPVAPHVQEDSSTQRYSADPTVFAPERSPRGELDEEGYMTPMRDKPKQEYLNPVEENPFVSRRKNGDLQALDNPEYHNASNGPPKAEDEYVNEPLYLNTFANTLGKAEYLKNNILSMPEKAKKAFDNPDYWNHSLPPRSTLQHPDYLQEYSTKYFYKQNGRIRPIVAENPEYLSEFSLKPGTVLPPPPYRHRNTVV
Chain of UniProt Q9BUB5 (whole entry, looked up): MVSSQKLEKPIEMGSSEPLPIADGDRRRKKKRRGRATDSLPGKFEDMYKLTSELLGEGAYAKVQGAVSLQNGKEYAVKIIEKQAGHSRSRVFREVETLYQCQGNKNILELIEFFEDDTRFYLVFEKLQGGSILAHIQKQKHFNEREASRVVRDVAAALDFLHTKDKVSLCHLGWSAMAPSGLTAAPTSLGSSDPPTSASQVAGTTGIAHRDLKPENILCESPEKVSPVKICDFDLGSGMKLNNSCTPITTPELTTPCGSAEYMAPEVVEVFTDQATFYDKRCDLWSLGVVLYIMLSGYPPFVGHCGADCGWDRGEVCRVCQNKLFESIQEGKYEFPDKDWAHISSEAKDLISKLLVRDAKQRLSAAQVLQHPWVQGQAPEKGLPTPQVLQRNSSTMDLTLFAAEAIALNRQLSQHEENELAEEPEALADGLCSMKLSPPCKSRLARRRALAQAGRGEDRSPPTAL

Study 1
Target: Tyrosine-protein kinase Tec (TEC, Homo sapiens, UniProt P42680)
Chain of UniProt P42680 (whole entry, looked up): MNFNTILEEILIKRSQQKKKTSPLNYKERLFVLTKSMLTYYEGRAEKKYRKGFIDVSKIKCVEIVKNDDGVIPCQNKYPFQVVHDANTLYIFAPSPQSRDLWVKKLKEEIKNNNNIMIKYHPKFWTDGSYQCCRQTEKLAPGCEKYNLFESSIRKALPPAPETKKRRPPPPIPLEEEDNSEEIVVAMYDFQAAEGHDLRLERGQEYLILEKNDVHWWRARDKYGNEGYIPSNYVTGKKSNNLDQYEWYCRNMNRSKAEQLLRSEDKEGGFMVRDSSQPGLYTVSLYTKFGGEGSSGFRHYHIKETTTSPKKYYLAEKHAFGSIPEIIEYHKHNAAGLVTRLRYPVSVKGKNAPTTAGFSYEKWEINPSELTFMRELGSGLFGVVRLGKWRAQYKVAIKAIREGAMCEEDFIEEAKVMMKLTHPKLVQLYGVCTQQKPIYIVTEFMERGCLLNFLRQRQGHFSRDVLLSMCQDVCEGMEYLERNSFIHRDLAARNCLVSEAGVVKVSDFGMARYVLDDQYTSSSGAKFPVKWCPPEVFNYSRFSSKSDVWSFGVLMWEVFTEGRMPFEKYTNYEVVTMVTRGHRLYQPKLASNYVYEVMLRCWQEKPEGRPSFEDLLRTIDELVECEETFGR
Read-out: enzyme activity
Mode: inhibitor
Concentration: 0.5 µM
Reference: control
| SMILES | remaining activity [%] |
| --- | --- |
| COc1ccc(C(=O)Nc2sc3c(c2C(N)=O)CCCC3)cc1OC | 115 |
| CO[C@H]1C[C@@H]2CC[C@@H](C)[C@@](O)(O2)C(=O)C(=O)N2CCCC[C@H]2C(=O)O[C@H]([C@H](C)C[C@@H]2CC[C@@H](O)[C@H](OC)C2)CC(=O)[C@H](C)/C=C(\C)[C@@H](O)[C@@H](OC)C(=O)[C@H](C)C[C@H](C)/C=C/C=C/C=C/1C | 138 |
| O=C1NC(=O)C(c2cn(CCCn3ccnc3)c3ccccc23)=C1Nc1ccccc1 | 162 |
| Cc1nc(-c2ccccc2)c(-c2ccncc2)o1 | 127 |
| O=C(CCCc1ccc(-c2ccccc2F)cc1)Nc1ccc(O)cc1 | 86 |
| C#Cc1cccc(Nc2ncnc3cc(OCCOC)c(OCCOC)cc23)c1 | 96.2 |
| Cc1ccc(NC(=O)c2ccc(CN3CCN(C)CC3)cc2)cc1Nc1nc(-c2cccnc2)cs1 | 83.2 |
| O=S(=O)(c1cccc2cnccc12)N1CCCNCC1 | 109 |
| CN(C)c1ccc(C=C2C(=O)Nc3ccccc32)cc1 | 103 |
| O=C1NC(=O)C(c2cn(CCCO)c3ncccc23)=C1c1cnccn1 | 120 |
| O=c1c2ccccc2[nH]c(=S)n1CCN1CCC(=C(c2ccc(F)cc2)c2ccc(F)cc2)CC1 | 110 |
| COc1cc2ncnc(Nc3ccc(Oc4ccccc4)cc3)c2cc1OC | 43.3 |
| Cc1cccc(-c2[nH]c(C(C)(C)C)nc2-c2ccc3c(c2)OCO3)n1 | 123 |
| COc1cc2ncnc(Nc3ccc(F)c(Cl)c3)c2cc1OCCCN1CCOCC1 | 104 |

Study 2
Compound: O=C(Nc1cnc(Oc2ccc(F)cc2)nc1)N1CCc2ncccc2[C@@H]1c1ccc(F)cc1
Read-out: cell-free assay
Technique: competition with immobilised ligand
Concentration: 1 µM
| target | remaining binding [%] |
| --- | --- |
| ERBB4 (Homo sapiens, UniProt Q15303) | 97 |
| Ribosomal protein S6 kinase alpha-3, C-terminal kinase domain (RPS6KA3, Homo sapiens, UniProt P51812) | 91 |
| PIP4K2B (Homo sapiens, UniProt P78356) | 100 |
| RIPK4 (Homo sapiens, UniProt P57078) | 100 |
| MKNK1 (Homo sapiens, UniProt Q9BUB5) | 95 |

Study 3
Target: Myc proto-oncogene protein, bHLH-zipper, MAX partner unstated (MYC, Homo sapiens, UniProt P01106, residues 368-449)
Chain of UniProt P01106 (368-449, looked up): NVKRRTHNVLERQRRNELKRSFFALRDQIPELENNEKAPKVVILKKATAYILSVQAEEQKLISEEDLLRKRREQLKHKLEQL
Technique: protein-binding microarray
Molecule type: double-stranded DNA, one strand shown
Sample: in vitro
Concentration: not given
Notes: k-mer, scored over probes, only values ≥0.25
Reading: higher = stronger binding
| Sequence | E-score |
| --- | --- |
| GCATGCGA | 0.415 |
| AAAGCATG | 0.433 |
| ACACGACG | 0.255 |
| AGGTGGTG | 0.258 |
| CGTGGTAG | 0.38 |
| CACGGTGG | 0.281 |
| ATGCCGCA | 0.308 |
| AGCATGTA | 0.342 |

Single results of other studies
| Substance | target | assay | test system | conditions | scale | measurement | result |
| --- | --- | --- | --- | --- | --- | --- | --- |
| PhoQ, residues 284 288 289 292 302 303 SACGEM | PhoP, residues 12 14 15 18 19 LQHIR (Escherichia coli, UniProt P23836) | Sort-seq, item: YFP reporter | E. coli | PhoQ-PhoP variant library, with: 10 µM Mg2+ | reference: high Mg2+ state, higher = stronger signaling | fold induction | 2.59 |
